Published values gathered from unrelated publications.
Each line is one published result; not all experiments were run side by side. “And” joins repeats or separate records; there may be more than shown. ± gives the spread as reported. Values after ≈ are worked out from the molar mass of the structure shown.

SMILES = Cc1ccc(CNC(=O)C(=O)c2c(C)nc3ccc(C)cn23)cc1; tested on = Bacillus subtilis; assay = microbial growth; test system = ATCC6633; conditions = 2 mM, 20 h; endpoint = inhibition zone; result = 0 mm
SMILES = CN[C@@H]1[C@H](O)[C@H](NC)[C@H]2O[C@]3(O)[C@H](O[C@@H]2[C@H]1O)O[C@H](C)C[C@H]3NC(=O)Cc1ccccn1; tested on = Mycolicibacterium fortuitum; assay = microbial growth; test system = ATCC6841; endpoint = MIC; result = 25 to 50 mg/L (≈ 55.2 to 110 µM)
SMILES = CC1(C)CCC2(C(=O)NCc3ccccc3)CCC3(C)C(=CCC4C5(C)CCC(OC(=O)C6CC(OC(=O)c7ccc(O)c(O)c7)CN6C(=O)C6CC(O)C(O)C(O)C6)C(C)(C)C5CCC43C)C2C1 (stereo not drawn); tested on = Influenza A virus; test system = MDCK, A/WSN/1933 (H1N1); scale = reference: CC50 over EC50; endpoint = selectivity index; result = 11.8
SMILES = Cc1ccc(NS(=O)(=O)c2c(C(=O)N3CCCCCC3)c(C)n(C)c2C)c(Cl)c1; tested on = Fowlpox virus; assay = viral infection; test system = CEF; conditions = 1.235 µM; scale = reference: untreated; endpoint = infection; result = 85.8% and 107% and 94.6%
SMILES = Nc1c2c(nc3sc4c(c13)CCCCC4)CCCC2; tested on = Mycobacterium bovis BCG; conditions = concentration not given; endpoint = activity; result = inactive
SMILES = Cc1ccc(N2CC3CC(C2)N3C)cc1C(=O)NC1(c2ccc3c4c(cccc24)C(=O)N3C)CC1; tested on = Human coronavirus 229E; assay = viral replication; test system = Huh-7; endpoint = IC50; result = 3.6 µM
SMILES = CC1(C)[C@H](NC(=O)/C(=N\OCC(=O)N2CCC(C(=O)O)CC2)c2csc(N)n2)C(=O)N1OS(=O)(=O)O; tested on = Salmonella enterica Typhi; assay = agar dilution; test system = susceptible; endpoint = MIC; result = 2 mg/L (≈ 3.65 µM)
SMILES = O=C1NC2(CC2)COc2ncc(F)cc2[C@H]2COCCN2c2ccn3ncc1c3n2; test system = Sprague-Dawley rat, male, thymus; conditions = oral, 20 mg/kg/day, 4 weeks dosing, end of recovery; endpoint = organ-to-body weight ratio; result = 0.09 ± 0.022%
SMILES = CC1(C)CCC2(C(=O)NCc3ccccc3)CCC3(C)C(=CCC4C5(C)CCC(OC(=O)C6CC(OC(=O)c7ccc(F)c(F)c7)CN6C(=O)c6ccc(F)c(F)c6)C(C)(C)C5CCC43C)C2C1 (stereo not drawn); tested on = Influenza A virus; assay = viral replication; test system = MDCK, A/WSN/1933 (H1N1); conditions = 48 h; endpoint = EC50; result = 4.47 ± 0.67 µM
SMILES = CC1(C)[C@H](NC(=O)/C(=N\OCC(=O)N2CCC(C(=O)O)C2)c2nsc(N)n2)C(=O)N1OS(=O)(=O)O (stereo partly drawn); tested on = Salmonella enterica Typhi; assay = agar dilution; test system = susceptible; endpoint = MIC; result = 4 mg/L (≈ 7.47 µM)
SMILES = CC1(C)CCC2(C(=O)NCc3ccccc3)CCC3(C)C(=CCC4C5(C)CCC(OC(=O)C6CC(OC(=O)c7cccc(O)c7O)CN6C(=O)c6cccc(O)c6O)C(C)(C)C5CCC43C)C2C1 (stereo not drawn); tested on = Influenza A virus; test system = MDCK, A/WSN/1933 (H1N1); scale = reference: CC50 over EC50; endpoint = selectivity index; result = 117
SMILES = Cc1cc(Oc2nc(N3CC[C@@H](c4ccncc4)C3)ncc2F)[nH]n1; tested on = Mycobacterium tuberculosis; test system = THP-1, H37Rv non-replicating; conditions = 0.09491 µM, day 4 plus 1; endpoint = normalised growth; result = 24.4% and 14.9%
SMILES = Oc1ccc(Br)cc1-c1nc2cc(C(F)(F)F)ccc2s1; tested on = human coronavirus 229E; conditions = concentration not given, 12 h, compound not removed, unit not given; scale = reference: DMSO; endpoint = extracellular viral RNA; result = 0.778 and 0.819 and 1.09
SMILES = CC1(C)CCC2(C(=O)NCc3ccccc3)CCC3(C)C(=CCC4C5(C)CCC(OC(=O)C6CC(OC(=O)c7ccc(OCc8ccccc8)c(OCc8ccccc8)c7)CN6C(=O)c6ccc(OCc7ccccc7)c(OCc7ccccc7)c6)C(C)(C)C5CCC43C)C2C1 (stereo not drawn); tested on = Influenza A virus; test system = MDCK, A/WSN/1933 (H1N1); scale = reference: CC50 over EC50; endpoint = selectivity index; result = > 6.51
SMILES = Cc1ccc(CNC(=O)Cc2c(C)nc3ccc(C)cn23)cc1; tested on = Micrococcus luteus; assay = microbial growth; test system = ATCC10240; conditions = 2 mM, 20 h; endpoint = inhibition zone; result = 0 mm
SMILES = O=C(CCN(CCC(=O)N[C@@H](Cc1c[nH]c2ccccc12)C(=O)O)C(=O)CCN(CCC(=O)N(CCC(=O)N[C@@H](Cc1c[nH]c2ccccc12)C(=O)O)CCC(=O)N[C@@H](Cc1c[nH]c2ccccc12)C(=O)O)C(=O)c1cc(C(=O)N(CCC(=O)N(CCC(=O)N[C@@H](Cc2c[nH]c3ccccc23)C(=O)O)CCC(=O)N[C@@H](Cc2c[nH]c3ccccc23)C(=O)O)CCC(=O)N(CCC(=O)N[C@@H](Cc2c[nH]c3ccccc23)C(=O)O)CCC(=O)N[C@@H](Cc2c[nH]c3ccccc23)C(=O)O)cc(C(=O)N(CCC(=O)N(CCC(=O)N[C@@H](Cc2c[nH]c3ccccc23)C(=O)O)CCC(=O)N[C@@H](Cc2c[nH]c3ccccc23)C(=O)O)CCC(=O)N(CCC(=O)N[C@@H](Cc2c[nH]c3ccccc23)C(=O)O)CCC(=O)N[C@@H](Cc2c[nH]c3ccccc23)C(=O)O)c1)N[C@@H](Cc1c[nH]c2ccccc12)C(=O)O; tested on = human coronavirus 229E; assay = viral replication; endpoint = EC50; result = 45 ± 0.3 µM
SMILES = CCc1ccn2c(C(=O)N(C)Cc3ccccc3)c(C)nc2c1; tested on = Bacillus subtilis; assay = microbial growth; test system = ATCC6633; conditions = 2 mM, 20 h; endpoint = inhibition zone; result = 0 mm
SMILES = CC(C)CC(C(=O)N1CC2(CC1C#N)C(=O)Nc1ccccc12)N(C)C(=O)c1cc2c(F)cc(F)c(F)c2[nH]1 (stereo not drawn); tested on = human coronavirus NL63; assay = viral replication; test system = LLC-MK2; conditions = 0.05 µM; endpoint = inhibition; result = 100%
SMILES = Cc1ccc2nc(C)c(C(=O)C(=O)NCc3ccccc3)n2c1; tested on = Bacillus subtilis; assay = microbial growth; test system = ATCC6633; conditions = 2 mM, 20 h; endpoint = inhibition zone; result = 0 mm
SMILES = O=C(Nc1ccccc1SSc1ccccc1NC(=O)c1ccccc1)c1ccccc1; tested on = Influenza A virus; assay = viral replication; test system = MDCK, A/NWS/33 (H1N1); conditions = 24 h; endpoint = EC50; result = 110 ± 9.2 mg/L
SMILES = Cc1ccc(-c2nc3ccc(C)cn3c2C(=O)C(=O)NCc2ccc(N(C)C)cc2)cc1; tested on = Bacillus subtilis; assay = microbial growth; test system = ATCC6633; conditions = 2 mM, 20 h; endpoint = inhibition zone; result = 0 mm
SMILES = CC1(C)[C@H](NC(=O)/C(=N\OCc2c(Cl)cccc2Cl)c2csc(N)n2)C(=O)N1OS(=O)(=O)O; tested on = Salmonella enterica Typhi; assay = agar dilution; test system = susceptible; endpoint = MIC; result = 1 mg/L (≈ 1.86 µM)
SMILES = CCCC/C=C/C(=O)N[C@@H](Cc1csc2ccccc12)C(=O)N[C@H]1COC(=O)[C@@H]2C[C@@H](C)CN2C(=O)[C@H](C)NC(=O)[C@@H]2CCCCN2C(=O)[C@@H]2CCCN2C1=O; tested on = human coronavirus 229E; test system = Huh-7 CLPP knock-out 2; conditions = concentration not given, unit not given; scale = reference: DMSO; endpoint = RNA release; result = 0.00521 and 0.00631 and 0.00528
SMILES = Cc1ccc2nc(C)c(C(=O)C(=O)N(C)C)n2c1; tested on = Micrococcus luteus; assay = microbial growth; test system = ATCC10240; conditions = 2 mM, 20 h; endpoint = inhibition zone; result = 0 mm

For quick reference, copied from above:
SMILES = CCc1ccn2c(C(=O)N(C)Cc3ccccc3)c(C)nc2c1; tested on = Bacillus subtilis; assay = microbial growth; test system = ATCC6633; conditions = 2 mM, 20 h; endpoint = inhibition zone; result = 0 mm
SMILES = Cc1ccc(N2CC3CC(C2)N3C)cc1C(=O)NC1(c2ccc3c4c(cccc24)C(=O)N3C)CC1; tested on = Human coronavirus 229E; assay = viral replication; test system = Huh-7; endpoint = IC50; result = 3.6 µM
